Measurements collected from several papers.
Each line is one published result; not all experiments were run side by side. ± marks the error that the study gave.
BCHE: Cholinesterase (BCHE, Homo sapiens, UniProt P06276)
Chain of UniProt P06276 (whole entry, looked up): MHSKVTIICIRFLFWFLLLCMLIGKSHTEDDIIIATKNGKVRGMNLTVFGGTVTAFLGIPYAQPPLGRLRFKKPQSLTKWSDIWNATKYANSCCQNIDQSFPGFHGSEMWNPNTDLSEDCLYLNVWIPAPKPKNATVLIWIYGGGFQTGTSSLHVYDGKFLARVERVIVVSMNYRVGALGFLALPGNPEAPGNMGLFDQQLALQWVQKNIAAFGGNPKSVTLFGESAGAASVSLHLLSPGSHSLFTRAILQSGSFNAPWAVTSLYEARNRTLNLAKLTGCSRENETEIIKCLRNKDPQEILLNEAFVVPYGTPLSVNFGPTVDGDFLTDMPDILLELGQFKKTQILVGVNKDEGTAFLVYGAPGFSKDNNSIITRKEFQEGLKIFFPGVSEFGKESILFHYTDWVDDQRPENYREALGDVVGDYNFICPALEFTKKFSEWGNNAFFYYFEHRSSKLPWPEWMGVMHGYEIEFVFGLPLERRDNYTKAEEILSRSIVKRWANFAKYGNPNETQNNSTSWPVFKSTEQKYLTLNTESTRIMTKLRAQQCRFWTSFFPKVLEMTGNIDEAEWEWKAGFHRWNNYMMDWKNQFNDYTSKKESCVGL
Chain of UniProt P42574 (whole entry, looked up): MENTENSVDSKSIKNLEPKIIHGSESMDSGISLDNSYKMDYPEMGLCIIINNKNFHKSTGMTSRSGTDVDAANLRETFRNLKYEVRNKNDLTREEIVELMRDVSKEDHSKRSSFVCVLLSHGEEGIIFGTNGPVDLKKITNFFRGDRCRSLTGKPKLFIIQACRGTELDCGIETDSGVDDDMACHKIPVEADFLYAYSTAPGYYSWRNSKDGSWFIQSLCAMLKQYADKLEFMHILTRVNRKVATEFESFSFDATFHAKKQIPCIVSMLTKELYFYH
Chain of UniProt P37136 (whole entry, looked up): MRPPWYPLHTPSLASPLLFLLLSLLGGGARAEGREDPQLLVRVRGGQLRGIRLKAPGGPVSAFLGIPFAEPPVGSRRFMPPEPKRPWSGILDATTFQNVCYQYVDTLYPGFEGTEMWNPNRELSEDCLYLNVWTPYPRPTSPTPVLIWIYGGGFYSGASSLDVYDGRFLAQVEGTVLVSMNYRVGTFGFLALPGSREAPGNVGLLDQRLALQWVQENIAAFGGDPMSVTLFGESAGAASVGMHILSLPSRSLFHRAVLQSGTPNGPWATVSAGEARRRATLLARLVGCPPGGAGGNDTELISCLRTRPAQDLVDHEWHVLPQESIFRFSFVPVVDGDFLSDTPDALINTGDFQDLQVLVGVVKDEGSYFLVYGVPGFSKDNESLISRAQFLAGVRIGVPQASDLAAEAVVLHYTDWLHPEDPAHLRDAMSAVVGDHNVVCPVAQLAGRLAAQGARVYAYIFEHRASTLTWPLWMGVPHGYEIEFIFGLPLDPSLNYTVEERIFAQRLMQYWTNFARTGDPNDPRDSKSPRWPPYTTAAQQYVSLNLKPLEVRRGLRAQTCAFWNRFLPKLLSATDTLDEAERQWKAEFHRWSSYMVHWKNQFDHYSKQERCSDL
Chain of UniProt P30542 (whole entry, looked up): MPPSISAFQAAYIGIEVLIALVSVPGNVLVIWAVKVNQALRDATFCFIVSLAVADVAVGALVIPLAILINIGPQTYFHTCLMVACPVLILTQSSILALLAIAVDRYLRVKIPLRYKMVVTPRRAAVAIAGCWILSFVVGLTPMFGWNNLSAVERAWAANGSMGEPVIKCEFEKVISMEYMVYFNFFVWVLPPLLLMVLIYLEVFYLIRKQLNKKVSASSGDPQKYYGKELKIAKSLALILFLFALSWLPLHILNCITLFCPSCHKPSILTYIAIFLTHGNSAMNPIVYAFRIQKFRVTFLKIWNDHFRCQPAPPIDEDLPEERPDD
Chain of UniProt P41143 (whole entry, looked up): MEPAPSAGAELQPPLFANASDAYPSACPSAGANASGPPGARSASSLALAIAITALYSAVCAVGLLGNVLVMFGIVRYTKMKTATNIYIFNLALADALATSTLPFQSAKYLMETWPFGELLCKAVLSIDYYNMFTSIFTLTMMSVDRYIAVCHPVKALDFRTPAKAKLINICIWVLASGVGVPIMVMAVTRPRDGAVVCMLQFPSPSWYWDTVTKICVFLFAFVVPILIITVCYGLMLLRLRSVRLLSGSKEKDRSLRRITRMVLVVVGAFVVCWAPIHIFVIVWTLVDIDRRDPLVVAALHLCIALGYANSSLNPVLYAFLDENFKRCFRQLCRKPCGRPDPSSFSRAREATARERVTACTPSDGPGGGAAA
Chain of UniProt P25123 (whole entry, looked up): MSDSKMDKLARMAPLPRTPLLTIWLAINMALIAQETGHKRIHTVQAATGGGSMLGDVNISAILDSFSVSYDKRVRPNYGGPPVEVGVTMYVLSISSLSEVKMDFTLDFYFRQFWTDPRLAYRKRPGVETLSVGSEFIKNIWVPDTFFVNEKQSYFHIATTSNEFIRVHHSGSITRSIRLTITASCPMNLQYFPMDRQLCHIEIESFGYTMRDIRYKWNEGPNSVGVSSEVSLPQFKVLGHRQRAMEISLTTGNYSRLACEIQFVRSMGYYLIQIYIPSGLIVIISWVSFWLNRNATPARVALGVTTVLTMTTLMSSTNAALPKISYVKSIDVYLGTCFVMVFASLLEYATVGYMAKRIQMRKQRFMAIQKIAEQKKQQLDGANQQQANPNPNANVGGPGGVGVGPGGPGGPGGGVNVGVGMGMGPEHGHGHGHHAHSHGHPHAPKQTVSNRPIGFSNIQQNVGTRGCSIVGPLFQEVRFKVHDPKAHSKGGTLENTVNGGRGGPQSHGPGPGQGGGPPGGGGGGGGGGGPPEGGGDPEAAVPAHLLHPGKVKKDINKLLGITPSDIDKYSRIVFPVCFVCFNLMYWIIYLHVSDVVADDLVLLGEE
Chain of UniProt P55210 (whole entry, looked up): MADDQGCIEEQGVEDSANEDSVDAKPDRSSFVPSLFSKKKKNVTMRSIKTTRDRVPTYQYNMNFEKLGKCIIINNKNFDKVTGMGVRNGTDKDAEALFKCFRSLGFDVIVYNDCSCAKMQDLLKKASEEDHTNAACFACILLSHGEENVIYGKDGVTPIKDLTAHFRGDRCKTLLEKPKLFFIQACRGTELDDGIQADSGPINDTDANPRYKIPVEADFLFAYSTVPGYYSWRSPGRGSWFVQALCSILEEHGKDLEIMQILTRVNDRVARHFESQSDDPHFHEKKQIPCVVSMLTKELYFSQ
Chain of UniProt O55242 (whole entry, looked up): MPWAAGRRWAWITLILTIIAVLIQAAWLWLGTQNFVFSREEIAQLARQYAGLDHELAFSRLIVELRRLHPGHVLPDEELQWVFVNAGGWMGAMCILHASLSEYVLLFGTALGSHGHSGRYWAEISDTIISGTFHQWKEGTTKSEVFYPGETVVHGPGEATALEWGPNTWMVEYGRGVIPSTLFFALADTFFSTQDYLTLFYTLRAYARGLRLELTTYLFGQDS
Chain of UniProt P16662 (whole entry, looked up): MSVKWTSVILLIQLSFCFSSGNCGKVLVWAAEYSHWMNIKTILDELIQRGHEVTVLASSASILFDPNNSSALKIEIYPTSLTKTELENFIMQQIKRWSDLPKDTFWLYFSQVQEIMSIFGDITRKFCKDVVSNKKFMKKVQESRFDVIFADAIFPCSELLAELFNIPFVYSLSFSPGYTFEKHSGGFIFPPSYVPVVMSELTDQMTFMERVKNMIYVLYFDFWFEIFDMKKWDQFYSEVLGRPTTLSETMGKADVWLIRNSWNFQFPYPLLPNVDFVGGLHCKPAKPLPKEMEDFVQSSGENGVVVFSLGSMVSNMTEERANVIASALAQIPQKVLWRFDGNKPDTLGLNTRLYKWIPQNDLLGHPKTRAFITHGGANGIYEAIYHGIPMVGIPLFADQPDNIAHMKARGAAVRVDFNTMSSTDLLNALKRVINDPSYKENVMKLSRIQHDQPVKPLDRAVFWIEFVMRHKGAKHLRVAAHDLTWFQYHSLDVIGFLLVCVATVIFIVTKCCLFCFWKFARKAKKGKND
Chain of UniProt P10635 (whole entry, looked up): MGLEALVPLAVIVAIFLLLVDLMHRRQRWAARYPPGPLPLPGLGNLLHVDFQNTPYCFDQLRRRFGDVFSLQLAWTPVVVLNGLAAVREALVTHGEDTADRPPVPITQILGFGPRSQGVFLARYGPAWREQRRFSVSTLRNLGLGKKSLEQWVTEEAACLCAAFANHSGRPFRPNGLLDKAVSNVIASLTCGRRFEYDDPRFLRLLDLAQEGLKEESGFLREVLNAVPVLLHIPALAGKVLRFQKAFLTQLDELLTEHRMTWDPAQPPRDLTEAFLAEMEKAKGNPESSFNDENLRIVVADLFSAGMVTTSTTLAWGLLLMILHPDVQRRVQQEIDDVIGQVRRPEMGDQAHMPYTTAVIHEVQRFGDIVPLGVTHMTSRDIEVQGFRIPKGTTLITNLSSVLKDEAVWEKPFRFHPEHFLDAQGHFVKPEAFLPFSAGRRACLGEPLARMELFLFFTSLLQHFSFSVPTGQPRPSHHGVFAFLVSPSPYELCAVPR

Substance = ginkgolide B; target or system = Rdl (Drosophila melanogaster, UniProt P25123); assay = GABA response, antagonist, koff/kon kinetics; measurement = Kd; result = 45 nM
Substance = maraviroc; test system = unbuffered water; setting = 20 °C; measurement = water solubility; result = ~1 mg/mL
Substance = ristocetin; target or system = Endolysin (Enterobacteria phage T4, UniProt P00720, C54T/C97A/L164A); assay = SPR; setting = 25 °C, T4 lysozyme fusion; measurement = Kd; result = 2800 ± 200 nM
Substance = phoxim-oxon; target or system = Acetylcholinesterase (Ache, Rattus norvegicus, UniProt P37136); assay = inhibitor; test system = rat, postnatal day 70, rat skeletal muscle homogenate; setting = 15 min, 37 °C; measurement = IC50; result = 17 nM
Substance = benzalkonium bromide; target or system = BCHE; assay = enzyme activity, inhibitor; measurement = IC50; result = 11100 ± 3120 nM
Substance = acetyl pepstatin; target or system = Gag-Pol polyprotein, protease (Human immunodeficiency virus type 1 group M subtype B, UniProt P03367); assay = binding, differential scanning calorimetry; setting = at melting temperature; measurement = Kd; result = 6100 nM
Substance = deucravacitinib; assay = multiple ascending dose; test system = healthy human; setting = oral, 12 mg once daily; measurement = subjects with influenza-like illness; result = 0%
Substance = cocaine hydrochloride; target or system = Sigma non-opioid intracellular receptor 1 (Sigmar1, Mus musculus, UniProt O55242); assay = binding, radioligand displacement; test system = mouse brain membranes; setting = 180 min, 37 °C, added: [3H](+)-pentazocine 3.0 nM; measurement = Ki; result = 1350 ± 221 nM
Substance = buprenorphine hydrochloride; target or system = UDP-glucuronosyltransferase 2B7 (UGT2B7, Homo sapiens, UniProt P16662); assay = 4-MU glucuronidation, inhibitor; setting = added: 4-MU 350 µM; measurement = IC50; result = 5140 ± 1300 nM
Substance = R(-)-PIA; target or system = Adenosine receptor A1 (ADORA1, Homo sapiens, UniProt P30542); assay = radioligand binding; measurement = IC50; result = 360 nM
Substance = Ac-DEVD-CHO; target or system = Caspase-7 (CASP7, Homo sapiens, UniProt P55210); assay = enzyme activity; measurement = IC50; result = 3.42 nM
Substance = evodiamine; target or system = BCHE; assay = enzyme activity, inhibitor; setting = with Triton; measurement = IC50; result = 20100 ± 1360 nM
Substance = mitragynine; target or system = Cytochrome P450 2D6 (CYP2D6, Homo sapiens, UniProt P10635); assay = enzyme activity, inhibitor; test system = human liver microsomes; setting = added: dextromethorphan substrate; measurement = Ki; result = 1100 nM
Substance = SNC80; target or system = Delta-type opioid receptor, with β-arrestin1 (OPRD1, Homo sapiens, UniProt P41143); assay = β-arrestin1 recruitment, agonist; measurement = EC50; result = 58.6 nM
Substance = Ac-DEVD-CHO; target or system = Caspase-3 (CASP3, Homo sapiens, UniProt P42574); assay = inhibitor; measurement = IC50; result = 2.73 nM

A few entries again:
Substance = Ac-DEVD-CHO; target or system = Caspase-7 (CASP7, Homo sapiens, UniProt P55210); assay = enzyme activity; measurement = IC50; result = 3.42 nM
